Published values collected from several papers.
Each numbered part is a random draw from the data of one study; scales do not carry over between parts.

Series 1 — method: aptamer microarray, sandwich; molecule type: DNA with 2'F-ANA; sample: in vitro; tested at: 200 nM; with: Cy3 exosite-II aptamer, 400 nM; direction: higher = stronger binding; quantity: mean fluorescence intensity; strand: GGTTGGTGTGGTTGG
Target: Prothrombin, mature alpha-thrombin (F2, Homo sapiens, UniProt P00734)
Setting: whole 15-mer aptamer, many near background
2'F-ANA at 1 3 4 6 7 8 10 13 14 15: 54.2 a.u.
2'F-ANA at 1 8 9 10 13 14 15: 56.7 a.u.
2'F-ANA at 1 4 5 6 7 9 11: 77.7 a.u.
2'F-ANA at 1 3 4 5 7 8 9 15: 70 a.u.
2'F-ANA at 1 2 7 9 10 12 13: 251 a.u.
2'F-ANA at 1 2 3 4 8 9 10 15: 90.3 a.u.
2'F-ANA at 1 2 3 4 7 10 14: 51.5 a.u.
2'F-ANA at 1 4 6 7 12 13 15: 178 a.u.
2'F-ANA at 2 3 4 6 10 14 15: 154 a.u.
2'F-ANA at 1 4 5 6 9 12 13 14: 65.1 a.u.
2'F-ANA at 1 2 6 7 10 11 14 15: 50.5 a.u.
2'F-ANA at 1 2 3 4 6 7 8 9 10 13: 57.6 a.u.
2'F-ANA at 1 3 7 10 11: 74 a.u.
2'F-ANA at 2 3 4 5 8 12 14: 59 a.u.
2'F-ANA at 7 10 11 12 13: 206 a.u.
2'F-ANA at 2 3 5 6 8 10 11 12 13 14: 52.7 a.u.
2'F-ANA at 2 3 4 6 7 11 14: 262 a.u.
2'F-ANA at 3 7 13 14 15: 680 a.u.
2'F-ANA at 2 7 9 11 15: 339 a.u.
2'F-ANA at 2 4 5 6 12 14 15: 50.4 a.u.
2'F-ANA at 3 7 8 10 11 12: 692 a.u.
2'F-ANA at 1 2 4 7 11 12 13 15: 174 a.u.
2'F-ANA at 2 3 4 6 7 8 9 10 13: 204 a.u.

Series 2 — method: RNA Bind-n-Seq; molecule type: RNA; sample: in vitro; tested at: 365 nM; reference: no-protein control; direction: higher = stronger binding; quantity: RBNS enrichment (R)
Target: RNA binding protein fox-1 homolog 2, RRM domain, GST-SBP tag (RBFOX2, Homo sapiens, UniProt O43251-10, residues 100-194)
Setting: natural RNA segment, single round, ends assumed
Construct (chain): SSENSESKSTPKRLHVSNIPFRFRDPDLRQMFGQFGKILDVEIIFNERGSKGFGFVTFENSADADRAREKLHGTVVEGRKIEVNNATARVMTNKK
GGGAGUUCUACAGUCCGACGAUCACAGAGCCCAGAGAAACAGCAGCCAGAAUAUUAGUUCUGAUUCAUCCCCGAGGGAAGAGAGGUACCCAUGGCUUCAGUGAGCACAUGCCAAGCCCAGGAUGCCAGCUGGCUGGAAUUCUCGGGUGCCAA: 0.412
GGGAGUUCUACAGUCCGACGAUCGCAAGAAUUGGUUGCAAAAAAAUGCUUUAUUUUUGAACAAUGCUUGGAAAUAUUAUGUGACUUUUUUGUUUGUUUGUUUUAGGAGGAUGGUGUAUGGUGGGGGCAAUAAAUGGAAUUCUCGGGUGCCAA: 4.8
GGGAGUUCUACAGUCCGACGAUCUCAGCAGAGAGGUGAGGGACUCAGACAUAUAUCUAAGUUGAAUAGCAUCCCCAUCGCAGCUGUAAGAAUUGAGCUGCAGAAGGUACCCUCUGUCGGGAUUGUAUCUCGACUGGAAUUCUCGGGUGCCAA: 0.692
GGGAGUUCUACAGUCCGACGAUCACGACGCUGUUCUUAGUUCACUAAUGUUAGCCUUAUUUAGGACAAAGUCAGCCAGACACCUUGUACUGGGCACGCGUCAGACCACAGCCGGCCGUUUCCUUUCUUUAGCCUGGAAUUCUCGGGUGCCAA: 0.443
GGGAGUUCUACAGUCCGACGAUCGCUGAGGCAGGAGGAUUCUUUGAGCCCAGGAGUUUGAGGUUACAGUGAGCCACAAUCACACCAAUCACUGCACUCCAGCCUGGGCAAUAAAGUAACUCUUGACUCAAAAAUGGAAUUCUCGGGUGCCAA: 0.474
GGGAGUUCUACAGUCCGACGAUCUUUGCUACAGGAGUGUAGAGACAGACAGCCCCAAGAGCUGUCAGCAUUGGAAGCCAGACUUGAUUCUGAGACAUGUUGAAUUGCUUUUUCCUCUCCCAUCAAAUGGCAUUUGGAAUUCUCGGGUGCCAA: 0.354
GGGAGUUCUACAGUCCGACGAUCCCUGCCUGUGUUUCCCUCUUAGGUGCAUUUAUCUUUUUGAUUUUUCCGAGUGGCAUUUAAGUGCACAAAUGAUAACAAGAGGAUUAUUCUCCCGUUCUCAAGGGAGUCAGUGGAAUUCUCGGGUGCCAA: 0.578
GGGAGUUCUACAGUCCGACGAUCCCAGCCGCCUAGGACACAGCCAACCCCGGCCCCUGGUCAGGCCCCUGCAGCUGCCUCACACCGCCCCUUGUGCUCGCCUCAUAGGUGUCUAUUUGGACUCUAAGCUCUACUGGAAUUCUCGGGUGCCAA: 0.456
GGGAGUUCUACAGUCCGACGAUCAAUUUAAAUAUAAAUUGACCAUUGAUGAUAUCCAGUUUUUCAUUUUUUACCUGUAUUGCAUUUUCCCCCUAGAGAAAUAGAUCAAAAGAGCACAAGAGUAUGCGUACAUAUGGAAUUCUCGGGUGCCAA: 0.867

Series 3 — method: RNA Bind-n-Seq; molecule type: RNA; sample: in vitro; tested at: 200 nM; setting: whole 134-nt RNA, ends assumed; with: 150 mM LiCl; reference: input library; direction: higher = stronger binding; quantity: log2 enrichment; all molecules: 7-deaza-guanosine replaces G
Target: Ras GTPase-activating protein-binding protein 1, full length (G3BP1, Homo sapiens, UniProt Q13283)
Sequence of UniProt Q13283 (whole entry, looked up): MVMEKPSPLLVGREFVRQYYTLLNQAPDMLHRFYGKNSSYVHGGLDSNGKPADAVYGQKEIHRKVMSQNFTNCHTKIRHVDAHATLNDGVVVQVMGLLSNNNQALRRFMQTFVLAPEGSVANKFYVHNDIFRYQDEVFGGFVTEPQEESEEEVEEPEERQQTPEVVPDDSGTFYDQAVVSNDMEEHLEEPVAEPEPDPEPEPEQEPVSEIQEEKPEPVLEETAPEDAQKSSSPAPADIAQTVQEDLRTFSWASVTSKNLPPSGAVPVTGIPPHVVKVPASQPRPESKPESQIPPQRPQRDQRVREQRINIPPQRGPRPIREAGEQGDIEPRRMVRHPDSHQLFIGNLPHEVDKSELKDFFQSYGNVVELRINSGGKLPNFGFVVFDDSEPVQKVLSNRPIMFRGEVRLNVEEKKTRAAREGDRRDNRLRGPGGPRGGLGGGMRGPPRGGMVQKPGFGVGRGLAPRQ
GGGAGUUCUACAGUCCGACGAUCCAUCAAAAUAGCUACAAACCAUACUAAAUUAUUCCAUUUGCAACUUAUCCCCAACAGGUAUGUUCUAAAAAUAGUUUUUUUUUGUCAUUUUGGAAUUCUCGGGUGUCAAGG: 0.308
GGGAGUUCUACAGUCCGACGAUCUGGCCCUGGUGGCAAGCGGGGAGGAAGAGGUGGCCUCAUGGAUCGUGGUGGUCCCGGUGGAAUGUUCAGAGGUGGCCGUGGUGGAGACAGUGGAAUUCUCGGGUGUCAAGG: 0.592
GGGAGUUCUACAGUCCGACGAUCUCCUGUGCUACACAUCGUAUGUACCGAAUCGGGUUUUUUUGGGUUUGGGAAAAAAAGGGAAAGUAUUAUGUUACGCCGUUCGGAUCUGCAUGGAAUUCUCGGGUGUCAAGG: -0.511
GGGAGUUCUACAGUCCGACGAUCUAACUUUAGAGGAGGAUGUGAUGGAUAUGGCAGUGGACGUGGAUUUGGGGAUGGCUAUAAUGGGUAUGGAGGAGGACCUGGAGGUGGCAAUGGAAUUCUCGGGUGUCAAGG: 0.00416
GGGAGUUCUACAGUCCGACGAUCUGGCCCUGGUGGCAUGCGGGGAUGAAGAGGUGGCCUCAUGGAUCGUGGUGGUCCCGGUGGAAUGUUCAGAGGUGGCCGUGGUGGAGACAGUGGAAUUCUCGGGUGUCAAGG: 0.161
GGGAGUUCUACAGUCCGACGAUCGAAAUUAUGGAAGUGGAAAUUACAAUGAUUUUGGAAAUUAUAACCAGCAACCUUCUAACUACGGUCCAAUGAAGAGUGGAAACUUUGGUGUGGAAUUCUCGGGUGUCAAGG: -2.56
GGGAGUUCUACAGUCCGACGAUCAAGUCCUGUGCUACACAUCGUAUGUACCGAAUCGGGGUGGGGAAAGGGGAAAGGGGAAAGUAUUAUGUUACGCCGUUCGGAUCUGCACUUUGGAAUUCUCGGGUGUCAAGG: 0.331
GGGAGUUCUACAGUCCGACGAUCCCUCAAGUCCUGUGCUACACAUCGUAUGUACCGAAUCGGAGGAAAAAGGUGGAAAGUAUUAUGUUACGCCGUUCGGAUCUGCACUUCCAGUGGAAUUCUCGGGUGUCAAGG: -0.682
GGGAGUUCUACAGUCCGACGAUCCUCAAGUCCUGUGCUACACAUCGUAUGUACCGAAUCGGGAAGGAAGGGGAAGGAAAGUAUUAUGUUACGCCGUUCGGAUCUGCACUUCCAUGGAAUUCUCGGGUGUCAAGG: -0.482
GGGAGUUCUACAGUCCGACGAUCUCCUGUGCUACACAUCGUAUGUACCGAAUCGGGAAAAAAAGGGAAAAAGGGUUUUUGGGAAAGUAUUAUGUUACGCCGUUCGGAUCUGCAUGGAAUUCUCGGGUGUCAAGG: -1.05
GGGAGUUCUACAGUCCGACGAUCUGGCCCUGGUGGCAUGCGGGGAGGAAGAGGUGGCCUGAUGGAUCGUGGUGGUCCCGGUGGAAUGUUCAGAGGUGGCCGUGGUGGAGACAGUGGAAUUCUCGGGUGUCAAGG: 0.645

Series 4 — method: RNAcompete; molecule type: RNA; sample: in vitro; tested at: 20 nM; setting: 7-mer, probes averaged, single round; reference: mean of 7-mers; direction: higher = stronger binding; quantity: 7-mer Z-score
Target: PABPC1L2, full length, GST fusion (mouse, UniProt A0ABA7IW68)
Residues (chain): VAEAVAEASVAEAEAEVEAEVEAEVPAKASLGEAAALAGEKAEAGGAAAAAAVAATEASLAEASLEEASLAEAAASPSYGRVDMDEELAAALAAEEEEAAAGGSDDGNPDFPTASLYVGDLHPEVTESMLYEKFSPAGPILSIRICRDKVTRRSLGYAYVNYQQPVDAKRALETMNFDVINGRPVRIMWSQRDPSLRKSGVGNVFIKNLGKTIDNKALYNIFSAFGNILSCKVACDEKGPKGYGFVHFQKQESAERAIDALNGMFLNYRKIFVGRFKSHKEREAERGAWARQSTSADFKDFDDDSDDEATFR
UAUUCAC: -0.231
UAAAUCA: 0.724
UGAUUAU: -0.148
CGCUGAG: -0.0627
AUACUCA: -0.133
UCACACA: -0.173
AAAUCUA: 0.693
ACACUCG: -0.13
CGUAGGA: -0.00289
GUCCAGA: -0.0464
CCUCCCC: -0.44
GUAUAAC: -0.0989
UCGACUC: -0.335
CGUACGA: -0.327
UUCCAGA: -0.179
CCGAGUG: -0.219
